Results gathered from unrelated publications.
Each numbered part is a random draw from the data of one study; scales do not carry over between parts. Changes are numbered by the printed parent chain.

Sample 1 — technique: RNA Bind-n-Seq; molecule type: RNA; medium: in vitro; tested at: not given; relative to: input RNA pool; reading: higher = stronger binding
Target: RING finger protein unkempt homolog, zinc fingers 1-6, GST-SBP tag (UNK, Homo sapiens, UniProt Q9C0B0, residues 30-357)
UniProt Q9C0B0, sequence (30-357, looked up): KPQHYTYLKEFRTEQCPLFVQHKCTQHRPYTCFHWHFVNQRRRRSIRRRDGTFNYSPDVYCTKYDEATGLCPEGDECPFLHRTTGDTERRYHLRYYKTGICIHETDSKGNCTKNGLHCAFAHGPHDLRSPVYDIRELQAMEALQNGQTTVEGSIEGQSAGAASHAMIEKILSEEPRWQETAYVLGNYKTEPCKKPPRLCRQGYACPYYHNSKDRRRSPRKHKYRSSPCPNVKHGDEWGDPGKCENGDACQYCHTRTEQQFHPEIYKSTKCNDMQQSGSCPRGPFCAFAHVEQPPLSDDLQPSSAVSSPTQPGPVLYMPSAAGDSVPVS
Setting: RNA with constant flanks, human-mouse chimeric sites, ends assumed
Shared flanks, not repeated: GGGAGUUCUACAGUCCGACGAUC … CAACAGAGGAUUGAGCAUCA
| Oligonucleotide | bound/input enrichment |
| --- | --- |
| CAGCCUCAGAGCCCAGACUUCCUGGAUAUUACCAACCCCAAAGCCGUAUUAGAAAAUGCAUUGAGAAACUUCGCCUGUCUGACGACUGGAGAUGUGAUUGCUAUCAACUAUAAUGAAAAG | 0.56 ratio |
| GCUCCUCCCCGCUCUGCAGCCUGGGGACACUGGGCUGGGACCAGAAUCCAGCUUUCUUUUAAUAGUGUCAGUGUAACUGUAUCCCGUGACAUUUCAUUUUUUUUUUAUAGUGUAUUUUUU | 36.4 ratio |
| CAGACUGUGUCAUACUUUUUAGACAUUCACAUCAGACUUACAGAGCACCUGGCCACAUUCUAGUUUUGUGUUAUUUCUCAGCUAUGGAUAUGAUCAAAUGAGAACACUGCUUAACUAAUG | 0.64 ratio |
| GCAGGAUCUUCUAAGUACCAGUGGGACAUUAUGAAAUCCCUUGGGCUCUCUGAUGACGACAUAGUGAAAUUUUCUGAAGCAGAACAUUGGCUUGAUUAUUUCCCACCACUGGCCGUUCAG | 0.434 ratio |
| UUUGUAAUAUCUGUAAAAGGUUCCCCCCCCCUACUGUAAAAAAAUAUGCAUGUAUAGUAAUUAGGACUUCAUUCCUCCAUGUUUUCUUCCCUUAUCUUACUGUCAUUGUCCUUAAACCUU | 4.5 ratio |
| UAAGUUAUUUUGUACAGCUUUGUAAAUUGUAUAGCUUUUUAUAUUGCCAUGUUUAUUUUGUUUGGGUAAUUUGGUUCAUUAAGUACAAAACCAAAUAAAUGAACAUCUUUUUCAGUAAUU | 1.23 ratio |
| GAUCCACAGUGGUCUGAGGAACAGCUGAUUGCUGCAAAAUUUUGCUUUGCUGGCCUUGUUAUAGGGCAGACUGAAGUGGACAUCAUGAGUCAUGCCACACAAGCUAUUUUUGAAAUUCUG | 0.222 ratio |
| UUGUCGAAGACUCAACGAAAGACUCCAACGGUUAUUCAUAAACAUUAUCAAAUUCAUCGGAUUCGACAUUUUUAUAUGAGAAAAGUCAAAUUUACUCAACAGAAUUACCAUGAUAGACUG | 0.463 ratio |
| CCUGCUCAGAUCACCAUGAAAGUAAUCCAAGGCCUAUAUAGUGGGGUCACCACAGUGGAACUGGACACCCUGGCUGCUGAGACAGCCGCAACCUUGACCACGAAGCACCCUGACUAUGCC | 0.162 ratio |
| GGAAGUACAAUGAUGGAGAUUGAUGGUGAUAAAGGCAAGCAGGGCGGGCCCACCUACUACAUAGAUACCAAUGCCCUCCGCGUGCCCAGGGAGAACAUGGAGGCCAUCUCACCACUCAAG | 0.293 ratio |
| GAUAAGAAAAGCUUGUUGGAGACCCGCUUGCAUGUCACUGGCAGAGACCUGAGGUGUCAAAUAGCUGAAACUUUCGGAUUUCAAGAAAAUUAUAUCAAGAUCGUAAUAAAUAAGAAACAG | 0.385 ratio |

Sample 2 — target: CCNB2, cyclin fold, Cln2 fusion (human); technique: yeast growth competition, sequencing; medium: yeast; setting: weak parent motif; relative to: not given; reading: higher = stronger binding
Starting sequence: CDC25A docking peptide (human); PPHRRRLLFACSP; partner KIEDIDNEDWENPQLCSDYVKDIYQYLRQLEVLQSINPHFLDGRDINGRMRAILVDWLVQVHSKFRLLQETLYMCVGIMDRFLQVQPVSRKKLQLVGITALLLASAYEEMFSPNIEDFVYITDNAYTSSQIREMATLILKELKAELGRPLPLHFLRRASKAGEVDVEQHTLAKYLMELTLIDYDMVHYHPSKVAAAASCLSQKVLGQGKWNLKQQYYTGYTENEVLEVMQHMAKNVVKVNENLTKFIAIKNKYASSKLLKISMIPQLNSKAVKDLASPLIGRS
| Substitution | normalised enrichment score |
| --- | --- |
| PPHRRRLLFACLP [S12L] | 0.684 |
| PPHRRTLLFACSP [R6T] | 0.443 |
| PPHRRRLLDACSP [F9D] | -0.0633 |
| PPSRRRLLFACSP [H3S] | 0.99 |
| PPHRRRLLWACSP [F9W] | 0.445 |
| PPHRRRLLFLCSP [A10L] | 0.00497 |
| PPHRRRLLFMCSP [A10M] | 0.477 |
| PPHERRLLFACSP [R4E] | -0.332 |
| PPHRRRLLFGCSP [A10G] | 0.47 |
| PPHRRRLLEACSP [F9E] | 0.287 |
| TPHRRRLLFACSP [P1T] | 0.609 |
| PPHRRRLLFALSP [C11L] | 0.633 |
| PPHRRRLLPACSP [F9P] | 0.202 |
| PPHRTRLLFACSP [R5T] | 0.207 |
| PPHRRRLLFACDP [S12D] | 0.337 |
| PPHRRRLLFASSP [C11S] | 0.663 |
| PPHRGRLLFACSP [R5G] | 0.282 |
| PPHRRRLLFAMSP [C11M] | 0.294 |
| PYHRRRLLFACSP [P2Y] | 0.667 |
| PPQRRRLLFACSP [H3Q] | 0.324 |
| PPHRRRDLFACSP [L7D] | 0.407 |
| PPHFRRLLFACSP [R4F] | 1.01 |
| PPHMRRLLFACSP [R4M] | 0.459 |
| PPHRSRLLFACSP [R5S] | 0.474 |
| PPHRRRLLFACRP [S12R] | 0.751 |

Sample 3 — technique: protein binding microarray; molecule type: double-stranded DNA, one strand shown; medium: in vitro; tested at: not given; relative to: not given; reading: higher = stronger binding
Target: Histone acetyltransferase KAT6A, winged helix 2, GST fusion (KAT6A, Homo sapiens, UniProt Q92794, residues 85-181)
Setting: 8-mer, flanks averaged, mean of 2 arrays, mostly near background
Target sequence (chain): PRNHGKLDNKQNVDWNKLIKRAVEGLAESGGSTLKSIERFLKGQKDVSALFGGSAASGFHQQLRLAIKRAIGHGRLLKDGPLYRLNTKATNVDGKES
| Oligonucleotide | E-score |
| --- | --- |
| ATCACCTC | -0.0959 |
| ACGTTGCA | -0.0923 |
| GCATTAAC | 0.0688 |
| CGCCTGGC | 0.229 |
| AGCGTACT | -0.168 |
| AAGCTTGT | 0.0437 |
| ATACCACC | -0.0953 |
| AAACGCAA | 0.0713 |
| CAAGTATA | -0.25 |
| CCTCGCGC | 0.0575 |
| CTCTTGTA | -0.232 |
| TATACTGA | 0.189 |
| GATTAACC | -0.0412 |
| AGTTCGCC | 0.0626 |
| GACTGCGC | 0.0497 |
| AATAGACC | -0.0153 |
| CCATAGTA | -0.129 |
| CGTCTGCC | -0.0782 |
| AAGGTTCC | 0.028 |
| TCCGGCAA | 0.125 |
| AGGGCCAA | -0.025 |
| GAGTTGAA | -0.104 |
| TGACAGAA | -0.00958 |
| GCTTTTAA | -0.00822 |
| ACTCGAGG | 0.0167 |

Sample 4 — technique: protein-binding microarray; molecule type: double-stranded DNA, one strand shown; medium: in vitro; tested at: 250 nM; setting: 60-bp whole probe; added: salmon DNA 0.4 mg/ml; relative to: random background probes; reading: higher = stronger binding; shared flanks, not repeated: GCCTAGCAC … GTCTTGATTCGCTTGACGCTGCTG
Target: Interferon regulatory factor 5, full length, phosphomimetic (IRF5, Homo sapiens, UniProt Q13568-2, residues 1-514, K96S/S451D/S453D/S456D/S462D)
| Oligonucleotide | log fluorescence [z-score] |
| --- | --- |
| TTAGGACTGGGACTGGGATAGTGCTAG | -0.531 |
| TTAGATAGCAGTTTCGATTAGTGCTAG | 9.09 |
| GACGATATCAGTTTCGAGGCGTGCTAG | 6.17 |
| TTAGGTTTCGACACTGGGTGAGTGCTA | 5.79 |
| TCAATTCTCTGCTTGGGACTGTGCTAG | 0.12 |
| ACCTATAGGTTGTTTCTAATAGTGCTA | 0.739 |
| TCAACTCCAGTTCTGGGACTGTGCTAG | -0.387 |
| TTAGGACTGGGCTTTCGGTTAGTGCTA | 7.13 |
| TTAGTTTTCAATTTTTGCATGTGCTAG | 1.87 |
| TCAAATTTTAATAACACACTGTGCTAG | 0.55 |
| TTACGTTTCGGTCTCGGTTAGTGCTAG | 10.8 |
| TTAGATATAGGGACTGGATTAGTGCTA | 0.0544 |
| TTCGATATCAGACTGGATTAGTGCTAG | 1.08 |
| TTAGTTATCGGGTATCGGTTAGTGCTA | 6.32 |
| AAGGTTATCCATCTCAAGTAGTGCTAG | -0.0154 |
| TTAGGACTGGACACTGGGGTAGTGCTA | -0.56 |
| GGCGATTTCAGACTGGAGACGTGCTAG | -0.0666 |
| GACGATTTCAGACTAGAGACGTGCTAG | 0.436 |
| TCAAGACTCATAATGGCACTGTGCTAG | -0.0897 |
| TATTACCTCATCTTCCTCTGCGTGCTA | 0.623 |
| GACGGTTTCCTACTGCGGACGTGCTAG | 0.329 |
| TTAGGAATCGACTATCGGTTAGTGCTA | 7.58 |
| CTCACCCAGTCCAGACACCCGTGCTAG | -0.521 |
| ATATATGTATATATGTGTATGTGCTAG | 0.605 |
| TTAGGACTGGACACAGGGTTAGTGCTA | -0.468 |

Sample 5 — technique: DHFR PCA, deep sequencing; medium: yeast; added: (+)-ABA 0 µM; relative to: wild-type fitted maximum; reading: higher = stronger binding
Target: ABI1, truncated, D143A, DHFR fusion (Arabidopsis thaliana)
Setting: methotrexate growth selection, single substitutions
Starting sequence: PYL1, truncated, DHFR fusion (Arabidopsis thaliana); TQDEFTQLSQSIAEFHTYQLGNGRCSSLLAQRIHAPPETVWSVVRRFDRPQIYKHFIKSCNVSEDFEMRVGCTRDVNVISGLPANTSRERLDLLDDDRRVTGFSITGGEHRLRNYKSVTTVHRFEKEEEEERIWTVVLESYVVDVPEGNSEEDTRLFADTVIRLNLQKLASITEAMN
| Substitution | relative binding score [%] |
| --- | --- |
| S42Y | -1.17 |
| F157Y | 47.3 |
| S150Y | -5.82 |
| S150I | -12 |
| E109G | 0.751 |
| S104F | -12.9 |
| D48L | -5.12 |
| E4M | 19.5 |
| K168G | -10.8 |
| F124T | -2.58 |

Other studies, line by line
| Molecule | target | test | system | conditions | scale | quantity | value |
| --- | --- | --- | --- | --- | --- | --- | --- |
| PhoQ, residues 284 288 289 292 302 303 TSTLRA | PhoP, residues 12 14 15 18 19 QWHVF (Escherichia coli, UniProt P23836) | Sort-seq, item: YFP reporter | E. coli | PhoQ-PhoP variant library, added: 10 µM Mg2+ | relative to: high Mg2+ state, higher = stronger signaling | fold induction | 6.14 |

A few entries again (sample 5):
| Substitution | relative binding score [%] |
| --- | --- |
| S150Y | -5.82 |
| S150I | -12 |
| E109G | 0.751 |
| S104F | -12.9 |
| D48L | -5.12 |
| E4M | 19.5 |
| K168G | -10.8 |
